Published values from different studies.
Numbered parts are unrelated; each lists some results of a single study.

Block 1
Target: RNA binding protein fox-1 homolog 2, RRM domain, GST-SBP tag (RBFOX2, Homo sapiens, UniProt O43251-10, residues 100-194)
Method: RNA Bind-n-Seq
Form: RNA
Medium: in vitro
Concentration: 365 nM
Notes: natural RNA segment, single round, ends assumed
Relative to: no-protein control
Reading: higher = stronger binding
Endpoint: RBNS enrichment (R)
Constant ends, left off below: GGGAGUUCUACAGUCCGACGAUC … UGGAAUUCUCGGGUGCCAA
Construct (chain): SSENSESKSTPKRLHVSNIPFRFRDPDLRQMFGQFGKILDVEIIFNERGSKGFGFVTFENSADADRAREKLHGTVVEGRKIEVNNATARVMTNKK
GGCGGUGUGGAUGGCUGGCCCUCAUCCUACCUGUGUCUUUAUUGCUUUGAUCACCACAGUCUCUAACUUGCUGCUUUCUCCAGAAGCCUUUUUAUGUAUGGGUUAGAAAC: 0.656
ACAAGAUUGAUUUGUAAAACCCUUGAAAUGUAGAUUUCUUGUAGAUGUAUCUUCACGUUGUAAAUAUGUUUUGUAGAGUGAAGCCAUGGGAAGCCAUGUGUAACAGAGCU: 0.39
CCAAAGUAAAACAUUAGGUCAGGCAUGGUGGCUCAGGCCUGUAAUCCCAGCAUUUUGGGAGGCUGAGGCAAGUGGAUAACUUGAGGUCAUGAGUUCGAAACCAGCCUGGC: 1.65
AUAAAUAACUAAGUACAAAGCACAGUUGUAACUACCUGAAAUAUGAAGAUCCAGUUUCAUACAAACAUUUGUAUGAUGUGAAUAGUUGAUGGCAUUUUUUUGUCAUGAAA: 0.466
UUGUUUUGCUUAUUUUUAAAUUAACUGUUCAGGCUUUGGAUACUGCAGGCUUUAGAGGGAGAACCCAAAUUUUCAAUUAUGUUGGCUUUUUAUAAAGCUUGAGUUAUGUA: 0.575
UGGGACAAACCCUGGACAGCCAUGCCAGAGAGAGGCCUUUGACCGGCCCCAGAGCUAAAAGCACCAGAGAAAAUCAAAUGCUUCCUACUCAGCGUGACCCAACUUUUCUA: 0.239
UUUAAAGGCAAUGUACAGCUAUACUUUUUUAUAUGCUCUUCCAGUCAGUUAAAUUAUGGCCUACACUGAUCUGAGAUGUUCUCCACGUGAGCUGUCUUCAUUUCUCUGUG: 0.309
CUAACCCUAAAUCUUGACAUCAGAAAGUGUUUGCACUGUAUAAACAAUGUUAGCUGAAAGCAUGUUUAUUUUUUAAGGAGCUCCUGCUCUUCUGCACAUUUCCAUAUCUA: 0.583
AGCCAUGCAGUUACAUCUCUUUCUAAAUGAGGUCAGGUUUGCAAAUAAUAACAACAAAAAAGCUUUGUUUAGUCUUUGUUUUGUUUUCCAGGACAAAAACAAGCUUCCCU: 0.457
CCCCUCUUACUUUUUCUCUUGUGGAACUUGGCCACAGUUUCUGAACAAUGUGCCUACAUUACCAGCUGGCUUCAGUGAUUCCUCUGUGUCCCUUUUUGGUUUCUGGAAAG: 0.744
GAGACAACAGUACAUAUAAUAGAGGUACAAUUCGUUGGAUUUUUGUUUAUGUAUUUAUUUCAUUCCAGUUUGAUUUAUUUUAAUUGUUGAUACUUAAGUUGUCGAACAGU: 0.313
AGGGCCUCUCCCUCGUUGUCAUGUGCACUUUCCGUCUGAGGGAACUGCAGCUGCUGGAAGGCCAGCUGCUCAGACAAUCCCCAGCAUCCCCGGAACAGACACCCCCCCCC: 0.873

Block 2
Target: Histone acetyltransferase KAT6A, both winged helices, GST fusion (KAT6A, Homo sapiens, UniProt Q92794, residues 1-181)
Method: protein binding microarray
Form: double-stranded DNA, one strand shown
Medium: in vitro
Concentration: not given
Notes: 8-mer, flanks averaged, mean of 2 arrays, mostly near background
Relative to: not given
Reading: higher = stronger binding
Endpoint: E-score
Construct (chain): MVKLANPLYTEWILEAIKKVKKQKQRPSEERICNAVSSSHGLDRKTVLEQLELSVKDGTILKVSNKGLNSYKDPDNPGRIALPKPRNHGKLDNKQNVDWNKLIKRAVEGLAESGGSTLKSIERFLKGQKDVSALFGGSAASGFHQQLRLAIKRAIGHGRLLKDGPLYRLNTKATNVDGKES
AAAGCCCT: -0.258
CCATTAGC: -0.0382
ACTGATCA: -0.0247
CGACTATC: -0.0433
CCACTCAA: -0.201
ATGCATGC: 0.0109
AACCTCAC: -0.209
ACCCCCCT: -0.245
CGCTGAAA: 0.13
ATACCACA: -0.108
GAGCGCGC: 0.392
GTAGCGAC: 0.16
CTCTCCAC: -0.256
AATTCAAA: -0.12
AAGAGCTA: -0.206
GACCGAGA: 0.146
CCGTCCAC: 0.204
CTATGGTA: 0.0218
CGCCTTTA: 0.133
GATTGACC: 0.0621
CGAGGGAG: -0.136
GGATTTAA: 0.102
CCGAGCAG: 0.071
CTACGGTC: 0.0703
GATGGGTA: -0.16

Block 3
Target: Phosphate system positive regulatory protein PHO4, full length, GST-tagged (PHO4, Saccharomyces cerevisiae, UniProt P07270, residues 1-312)
Method: competition protein-binding microarray
Form: double-stranded DNA, one strand shown
Medium: in vitro
Concentration: 2 µM
Notes: whole 60-bp probe, lowest competitor level
With: Cbf1 competitor, 0.05 µM
Reading: higher = stronger binding
Endpoint: fluorescence intensity
Constant ends, left off below: … GTCTTGATTCGCTTGACGCTGCTG
Target sequence (chain): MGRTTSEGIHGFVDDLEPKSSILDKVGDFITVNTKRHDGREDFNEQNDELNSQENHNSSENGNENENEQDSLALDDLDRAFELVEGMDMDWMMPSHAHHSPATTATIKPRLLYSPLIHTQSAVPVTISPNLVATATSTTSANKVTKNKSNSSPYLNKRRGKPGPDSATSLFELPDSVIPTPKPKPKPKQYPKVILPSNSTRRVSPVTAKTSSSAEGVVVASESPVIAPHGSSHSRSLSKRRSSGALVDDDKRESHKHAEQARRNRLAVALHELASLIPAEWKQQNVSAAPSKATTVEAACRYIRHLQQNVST
TTATTTGGTGTTTCTTTCGTGCCGATAGGTTTCGAA: 4210 a.u.
TTTTCGATTTTCTGGCACGATGCTGACTTAGTACTA: 11600 a.u.
TATATCAGATAAGGACACGTGCCGATTCATTGGAAA: 22500 a.u.
TGCGCAACAACTTGCAGCGTGGGTGTATGTCTAGAA: 8070 a.u.
CAAGCGGAGGAGCAACACGTGGCCCAGCAAAAGGAG: 15600 a.u.
CATACCCAACCTTTTCACGTGCATTAAGATATTTGT: 14400 a.u.
CGGTACCCCAACCGTCACAATAAGTACTTGCGCCAT: 3610 a.u.
GTCTTGTCTCATTGGCGTGTGGGTGTCCCCACTTCA: 6860 a.u.
GATGGGTAACCTGTTTCCGTGACGGAAACATTAGAA: 3190 a.u.
TTGAGTAACTTTGGGCAGGTGACAGGTAAACCCCTT: 4260 a.u.
TCCAACTGAGTCCATCACGCAGGCACCAGAAGCTGC: 4950 a.u.
GCTTAAGGGCTCGACCACGTGCGATTCGCTGCTCAA: 15300 a.u.
AAATTTTTACTAGGACACGTGTAACACAGCTCCATG: 17000 a.u.
TGTTCTTCGTAGAAATGCATGCAGAAAAATTTTGAT: 6600 a.u.
ATATAAACGGATGAAAACGTGTTGATAATTGCATCA: 13300 a.u.
AAATTACTAAGTTGGTGTGTGGGTGACGCCGTATGA: 5850 a.u.
CCGCATTCGACTCACCACGTGGAATATCCTTCTCAG: 17900 a.u.
AAAGCGGTAATTTGACTTGTGGGTGCAGATATCTAT: 5250 a.u.

Block 4
Target: RING finger protein unkempt homolog, zinc fingers 1-6, SBP tag (UNK, Homo sapiens, UniProt Q9C0B0, residues 30-357)
UniProt Q9C0B0, sequence (30-357, looked up): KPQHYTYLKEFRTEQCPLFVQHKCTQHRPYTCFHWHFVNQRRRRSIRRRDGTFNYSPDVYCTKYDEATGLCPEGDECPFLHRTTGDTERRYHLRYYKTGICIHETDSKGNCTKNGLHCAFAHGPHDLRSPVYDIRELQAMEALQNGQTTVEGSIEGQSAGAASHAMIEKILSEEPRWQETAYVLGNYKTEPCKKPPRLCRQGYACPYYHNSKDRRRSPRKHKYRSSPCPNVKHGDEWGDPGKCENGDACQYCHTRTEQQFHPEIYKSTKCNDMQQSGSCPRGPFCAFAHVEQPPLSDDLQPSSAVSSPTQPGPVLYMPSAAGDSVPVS
Method: RNA Bind-n-Seq
Form: RNA
Medium: in vitro
Concentration: 100 nM
Notes: RNA with constant flanks, vertebrate orthologous sites, ends assumed
Relative to: input RNA pool
Reading: higher = stronger binding
Endpoint: bound/input enrichment
Constant ends, left off below: GGGAGUUCUACAGUCCGACGAUC … CAACAGAGGAUUGAGCAUCA
GACAGAGGCACUUUCUCCUUUGGUCUUUCGUUCUAAGAAGAAAAGGACCCAUGCACAUUUAUAGCUUUCUAAUAGCAUUAAAACCAAGGCCUUUUGUAGACUCCUAUUUUUGAUGUAUAU: 0.42 ratio
AAAUUUAUUUCAUGCCCUGGACUCCCUACCGUACCGAUACAUUAAUAGAGUAUGCUUCUAUAGAAGAUUUCCAAAACAGUCGCCAGACAACAACAUAUAAACUUCCAAAUCGAGUAGAUG: 1.15 ratio
GCCAUGUAGAGUAAGGUCCUGUUCUCCUUAGGAUGUUUUUUCCUUGUGUGUUUUUUUUUUCUAGGGGUGGGGGUGGGAUUAUGGCACACACCGACUCUGAGGCGAGCACUGCAGGGUCAU: 0.848 ratio
UUAUGCUAUAAUUUUCAUCCUACCUCUAAAACAGCACAGUGAUGACAAACCAGUCCCCAUUAGGGGGUCACCUGCUGCCACUUUCUCAGCGGUGUGUGUCUGAGCCCUGAACUAGUCACA: 1.05 ratio
UAAGAAUUGGAAGAAUUUUAUAGGAGGUGGUAGUCAAAAAGUAGCAGCAGUUUGGAAGAGUGGUUACAAAUAUCAAGAGCCAGGUGGCUAAAAGGUAGAGCUAUAGGUCAUUGAAGCUCA: 0.675 ratio
CUAUUGUUAAGCACUGUGUUCCAGACCGUGUCUGACUUUAGCAUAAACUAGGAGAUUUUAUAGUUUUAUUUUAAUGAAGUCCUGCCCAAUGUAGAGCAGCGUCUUCUACGUGUGGCAGCA: 1.56 ratio
CCUCCAGUGCUUGUUUUCAGGUUGUGGCUAAUUGCAUCUUCCACUUUAAGUUCUUUCCUGUGCCCCCUCCAUAAUCCCUCUCUUAACUCAGACAGGUGUGGAGUAUUUUACUCAGUCAUU: 0.863 ratio
UUCAUUAUCUGUCCAAGGUUGAGGUCACAGAGUUCGAGGACAUCAAGUCUGGAUACAGAAUAGAUUUUUCUCAGGUUGAUUCUCUUAGUUUGUUCUGAAGCUGAUGAUGAUGAUUUCUGA: 0.261 ratio
GCUCUAGUUCUUAAGAACCAACACUUGUAAGAGAUUUAGAAAAAAGUUUACAACAUAAUCUAGUUUACCGAAAGAGCCUUGUGCUAGAAUACUUUUUAAAAAGUAUUUUUGAAUACUAUU: 0.565 ratio
GUGCAAGGAAAUUAUUCCAACUAGUGAAUUUAUUAACAGUAAGUUAACAGCAAAAGCAAAUAGGCAACUUCAAGAUCCUUUAGUAAUCAUGACAGGAAACAUCCCAACAUGGCUUACUGA: 1.05 ratio
GGCCUCCUGAACUUCUAGCUUUCAAGCUGUGGCUGUUUUAGAUACUGGUUUUAUUUUCUUUGCAGUUUUUCCCUGUUGCCCACAUUCUCUCCCCCUCUUCCCAAGGUUUGACUCAUGGAU: 1.17 ratio
